{"data": "Published values gathered from unrelated publications", "note": "Lines come from different studies, so protocols differ. Several values in a cell are separate wells, animals, samples, runs or records. ± marks the error that the study gave.", "UniProt Q00535, sequence (whole entry, looked up)": "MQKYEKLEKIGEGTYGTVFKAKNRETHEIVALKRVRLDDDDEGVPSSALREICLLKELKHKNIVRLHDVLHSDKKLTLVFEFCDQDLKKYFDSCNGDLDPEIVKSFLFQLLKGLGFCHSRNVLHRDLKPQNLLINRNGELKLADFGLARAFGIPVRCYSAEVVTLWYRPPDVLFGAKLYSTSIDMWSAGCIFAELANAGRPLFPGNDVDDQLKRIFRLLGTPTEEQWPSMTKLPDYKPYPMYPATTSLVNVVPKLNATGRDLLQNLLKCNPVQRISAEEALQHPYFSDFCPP", "UniProt Q13153, sequence (whole entry, looked up)": "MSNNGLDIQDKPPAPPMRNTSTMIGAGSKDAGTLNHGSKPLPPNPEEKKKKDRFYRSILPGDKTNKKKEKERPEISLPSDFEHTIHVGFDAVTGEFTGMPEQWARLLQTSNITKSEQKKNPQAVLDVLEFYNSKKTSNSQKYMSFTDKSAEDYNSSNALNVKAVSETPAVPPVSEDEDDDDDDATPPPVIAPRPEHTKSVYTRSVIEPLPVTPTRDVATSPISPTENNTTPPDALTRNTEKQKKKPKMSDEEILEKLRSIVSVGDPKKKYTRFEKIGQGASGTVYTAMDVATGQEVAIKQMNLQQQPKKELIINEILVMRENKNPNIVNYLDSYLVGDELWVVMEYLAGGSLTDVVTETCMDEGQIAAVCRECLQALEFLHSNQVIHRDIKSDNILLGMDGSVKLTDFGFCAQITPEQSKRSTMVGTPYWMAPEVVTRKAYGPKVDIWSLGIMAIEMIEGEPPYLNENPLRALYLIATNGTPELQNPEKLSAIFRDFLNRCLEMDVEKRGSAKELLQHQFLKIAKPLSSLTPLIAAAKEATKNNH", "UniProt P80192, sequence (whole entry, looked up)": "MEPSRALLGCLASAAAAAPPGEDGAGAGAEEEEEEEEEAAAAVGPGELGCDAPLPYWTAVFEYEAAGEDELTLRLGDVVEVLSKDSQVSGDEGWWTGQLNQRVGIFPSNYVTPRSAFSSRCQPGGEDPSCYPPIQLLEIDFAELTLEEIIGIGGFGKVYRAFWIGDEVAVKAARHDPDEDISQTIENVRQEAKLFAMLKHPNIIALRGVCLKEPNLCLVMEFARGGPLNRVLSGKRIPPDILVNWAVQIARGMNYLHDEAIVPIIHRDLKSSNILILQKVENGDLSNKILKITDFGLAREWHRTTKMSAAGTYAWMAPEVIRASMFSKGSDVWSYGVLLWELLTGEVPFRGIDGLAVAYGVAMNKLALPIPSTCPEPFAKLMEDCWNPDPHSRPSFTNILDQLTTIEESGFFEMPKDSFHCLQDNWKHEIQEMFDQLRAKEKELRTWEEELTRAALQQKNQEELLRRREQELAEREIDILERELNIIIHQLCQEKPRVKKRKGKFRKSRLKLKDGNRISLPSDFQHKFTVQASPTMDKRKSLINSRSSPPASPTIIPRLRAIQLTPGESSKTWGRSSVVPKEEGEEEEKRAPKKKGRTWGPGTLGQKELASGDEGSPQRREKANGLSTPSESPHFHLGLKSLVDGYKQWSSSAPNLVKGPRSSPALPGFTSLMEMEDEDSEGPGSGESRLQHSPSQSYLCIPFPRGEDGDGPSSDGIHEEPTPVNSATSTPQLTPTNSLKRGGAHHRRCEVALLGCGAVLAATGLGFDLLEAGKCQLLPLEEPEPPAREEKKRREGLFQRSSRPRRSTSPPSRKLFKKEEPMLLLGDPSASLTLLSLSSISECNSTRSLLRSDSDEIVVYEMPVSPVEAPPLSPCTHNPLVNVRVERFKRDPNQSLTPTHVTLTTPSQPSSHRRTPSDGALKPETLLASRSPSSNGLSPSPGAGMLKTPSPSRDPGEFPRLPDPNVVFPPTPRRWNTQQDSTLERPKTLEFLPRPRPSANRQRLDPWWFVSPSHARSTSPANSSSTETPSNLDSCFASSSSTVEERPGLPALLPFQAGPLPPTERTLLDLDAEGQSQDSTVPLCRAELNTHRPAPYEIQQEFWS", "UniProt Q14012, sequence (whole entry, looked up)": "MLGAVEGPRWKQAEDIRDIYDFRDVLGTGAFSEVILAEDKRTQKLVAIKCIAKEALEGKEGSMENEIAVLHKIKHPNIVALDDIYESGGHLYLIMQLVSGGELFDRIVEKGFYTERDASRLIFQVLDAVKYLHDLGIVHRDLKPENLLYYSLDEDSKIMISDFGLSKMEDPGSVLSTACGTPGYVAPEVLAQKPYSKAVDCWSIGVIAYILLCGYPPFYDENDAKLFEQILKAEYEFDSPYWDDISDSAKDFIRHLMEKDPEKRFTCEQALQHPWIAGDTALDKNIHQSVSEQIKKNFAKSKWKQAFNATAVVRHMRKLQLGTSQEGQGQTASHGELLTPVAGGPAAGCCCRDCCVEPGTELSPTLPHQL", "UniProt Q61206, sequence (whole entry, looked up)": "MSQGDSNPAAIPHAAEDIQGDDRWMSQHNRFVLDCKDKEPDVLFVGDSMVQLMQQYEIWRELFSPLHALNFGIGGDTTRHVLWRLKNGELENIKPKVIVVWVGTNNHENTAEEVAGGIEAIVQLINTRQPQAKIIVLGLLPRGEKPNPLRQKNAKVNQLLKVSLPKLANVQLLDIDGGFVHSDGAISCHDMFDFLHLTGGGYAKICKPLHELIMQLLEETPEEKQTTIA"}
{"SMILES": "Cc1nc2cccc(OCC(C)(C)C(=O)NC(C)C)c2c(N)c1C(=O)[O-].[Na+]", "target or system": "Salmonella typhimurium", "assay": "Ames preincubation", "test system": "TA1535", "setting": "0.13 mg/plate, added: without rat liver S9", "endpoint": "revertant colonies", "value": "16 ± 6 colonies/plate"}
{"SMILES": "COc1ccc2sc(Nc3nc(-c4ccccn4)cs3)nc2c1", "target or system": "Mycobacterium tuberculosis", "assay": "bacterial growth, inhibitor", "test system": "mmpL3-TetON", "endpoint": "IC50", "value": "2390 nM"}
{"SMILES": "Cc1ccc2nc(C)c(C(=O)C(=O)NCc3ccccc3)n2c1", "target or system": "Mycolicibacterium vaccae", "assay": "microbial growth", "test system": "IMET10670", "setting": "2 mM", "endpoint": "inhibition zone", "value": "21 mm"}
{"SMILES": "CN(C(=O)[C@H](Cc1ccccc1)NC(=O)Cc1c[nH]c2ccc(O)cc12)c1ccc(Cl)cc1", "target or system": "HIV-1", "assay": "viral infection", "endpoint": "EC50", "value": "21 ± 8 nM"}
{"SMILES": "CC(C)CC(C(=O)N1CC2(CC1C#N)C(=O)Nc1ccccc12)N(C)C(=O)c1cc2c(F)cc(F)c(F)c2[nH]1 (stereo not drawn)", "target or system": "Human coronavirus 229E", "assay": "cytopathic effect", "test system": "MRC5", "setting": "5.475 nM", "endpoint": "inhibition", "value": "95.7%"}
{"SMILES": "O=C(NCC(F)(F)c1ccc(Cl)cc1Cl)c1cc(Cl)nnc1Oc1cccc(C2CC2)c1", "target or system": "Botrytis cinerea", "assay": "fungal growth, inhibitor", "test system": "B05.10 wild type", "setting": "168 h", "endpoint": "EC50", "value": "5.1 ± 2.2 nM"}
{"SMILES": "COc1cc(CN2CCC3(C=Cc4ccccc43)CC2)cc2c1OCO2", "target or system": "Mycobacterium tuberculosis", "assay": "bacterial growth", "endpoint": "IC50", "value": "500 nM"}
{"SMILES": "CCc1ccn2c(C(=O)NC(C)c3ccccc3)c(C)nc2c1 (stereo not drawn)", "target or system": "Mycolicibacterium vaccae", "assay": "microbial growth", "test system": "IMET10670", "setting": "2 mM", "endpoint": "inhibition zone", "value": "27 mm"}
{"SMILES": "O=C1NC(=O)c2c1c1cc(F)c[n+]3c1c1c2c2cc(O)ccc2[n]1[Ru-4]312([N]=C=S)[S+]3CC[S+]1CC[S+]2CC3 (stereo not drawn)", "target or system": "MAP3K9 (Homo sapiens, UniProt P80192)", "assay": "enzyme activity", "setting": "100 nM, human enzyme, added: 10 µM ATP", "how to read": "relative to: untreated", "endpoint": "remaining activity", "value": "74%"}
{"SMILES": "Cc1cc(NCCc2ccccc2)nc(/N=C(\\N)Nc2ccc(Cl)cc2)n1", "target or system": "Mycobacterium tuberculosis", "assay": "microbial growth", "endpoint": "IC50", "value": "680 nM"}
{"SMILES": "CCC(CO)NCCNC(CC)CO.O=C(CN1C(=O)CSC1=O)Oc1ccc(C=NNC(=O)c2ccncc2)cc1Cl", "target or system": "Mycobacterium tuberculosis", "assay": "two-drug checkerboard", "test system": "H37Rv", "setting": "concentration not given, unit not given", "how to read": "lower means more synergy", "endpoint": "FICI", "value": 1.52}
{"SMILES": "Cc1ccc2nc(C)c(C(=O)C(=O)N(C)C)n2c1", "target or system": "Mycolicibacterium vaccae", "assay": "microbial growth", "test system": "IMET10670", "setting": "2 mM", "endpoint": "inhibition zone", "value": "0 mm"}
{"SMILES": "Cc1c(CC(=O)N[C@@H](Cc2ccccc2)C(=O)N(C)c2ccc(Cl)cc2)c2ccccc2n1C(C)C", "target or system": "HIV-1", "assay": "viral infection", "endpoint": "EC50", "value": "330 ± 30 nM"}
{"SMILES": "COc1ccccc1-c1n[nH]c2nc(N[C@H]3CC[C@H](NS(=O)(=O)CC(C)C)CC3)ncc12", "assay": "bead binding, competition bead pull-down, refers to: LINJ.34.3890", "test system": "Leishmania donovani extract", "setting": "10 µM", "how to read": "relative to: vehicle", "endpoint": "relative abundance", "value": 1.11}
{"SMILES": "CC[C@H](C)[C@H](NC(=O)[C@H](CO)NC(=O)[C@H](Cc1ccc(O)cc1)NC(=O)[C@H](Cc1ccc(O)cc1)NC(=O)[C@H](CC(N)=O)NC(=O)CNC(=O)[C@H](CO)NC(=O)[C@H](Cc1ccc(O)cc1)NC(=O)[C@H](CO)NC(=O)[C@H](CO)NC(=O)[C@H](CC(N)=O)NC(=O)COCCOCCNC(=O)CN1CCN(CC(=O)O)CCN(CC(=O)O)CCN(CC(=O)O)CC1)C(=O)N[C@@H](CC(C)C)C(N)=O [copper-64 labelled]", "assay": "dynamic PET", "test system": "KPC mouse Ptf1a-CreER tdTomato, metastases", "setting": "intravenous, 4.6 MBq/mouse, 0.1 min, 84 d after tamoxifen", "endpoint": "tissue uptake", "value": "0.08 %ID/mL"}
{"SMILES": "CN(C)[C@H]1C[C@@]23CC[C@@]4(O2)C(=CC[C@]2(C)[C@@H](c5ccc6ccncc6c5)CC[C@H]24)C=C3[C@@H](O)[C@@H]1O", "target or system": "CAMK1 (Homo sapiens, UniProt Q14012)", "assay": "ATP probe labelling, inhibitor, KiNativ profiling", "setting": "1 µM", "endpoint": "inhibition", "value": "-4.2%"}
{"SMILES": "CS(C)(=O)=Nc1ccc(-c2ccc(-c3nc4cc(O[C@@H]5CO[C@H]6[C@@H]5OC[C@H]6O)[nH]c4cc3F)cc2)cc1", "target or system": "Cyclin-dependent kinase 5, with p25 (CDK5, Homo sapiens, UniProt Q00535)", "assay": "enzyme activity, inhibitor", "setting": "10 µM", "endpoint": "inhibition", "value": "12%"}
{"SMILES": "CN1CCN(c2ccc(C(F)(F)F)cc2NC(=O)c2ccccn2)CC1", "target or system": "Mycobacterium tuberculosis", "assay": "bacterial growth, inhibitor", "test system": "mmpL3-TetON", "endpoint": "IC50", "value": "13000 nM"}
{"SMILES": "COc1ccccc1-c1n[nH]c2nc(NC3CCN(C(=O)Cc4ccc(F)cc4F)CC3)ncc12", "assay": "bead binding, competition bead pull-down, refers to: LINJ.33.0870", "test system": "Leishmania donovani extract", "setting": "10 µM", "how to read": "relative to: vehicle", "endpoint": "relative abundance", "value": 0.79}
{"SMILES": "CCn1c(C)c(CC(=O)N[C@@H](Cc2ccccc2)C(=O)N(C)c2ccccc2)c2ccccc21", "target or system": "HIV-1", "assay": "viral infection", "endpoint": "EC50", "value": "260 ± 40 nM"}
{"SMILES": "CCc1ccn2c(C(=O)NCc3ccccc3)c(C)nc2c1", "target or system": "Mycolicibacterium vaccae", "assay": "microbial growth", "test system": "IMET10670", "setting": "2 mM", "endpoint": "inhibition zone", "value": "19 mm"}
{"SMILES": "Nc1ccccc1C(=O)OCC#CCOC(=O)c1ccccc1N", "target or system": "Saccharomyces cerevisiae", "test system": "S288c wild type", "endpoint": "MIC", "value": "> 64 µg/mL"}
{"SMILES": "CCOc1cc(C=NNC(=S)Nc2cccc(Cl)c2)ccc1OC(=O)CN1C(=O)CSC1=O.NNC(=O)c1ccncc1", "target or system": "Mycobacterium tuberculosis", "assay": "two-drug checkerboard", "test system": "H37Rv", "setting": "concentration not given, unit not given", "how to read": "lower means more synergy", "endpoint": "FICI", "value": 1.22}
{"SMILES": "Cc1cc(Oc2nc(N3CC[C@@H](c4ccncc4)C3)ncc2F)[nH]n1", "target or system": "Mycobacterium tuberculosis", "test system": "THP-1, H37Rv non-replicating", "setting": "0.09491 µM, day 4", "endpoint": "normalised growth", "value": "20.8% and 7.55%"}
{"SMILES": "NNC(=O)c1ccncc1.O=C(CN1C(=O)CSC1=O)Oc1ccc(C=NNC(=S)Nc2cccc(Cl)c2)cc1Cl", "target or system": "Mycobacterium tuberculosis", "assay": "growth in combination", "test system": "192", "setting": "added: reference drug at 1/2 MIC", "endpoint": "MIC", "value": "0.0312 µg/mL"}
{"SMILES": "Cc1c(CN2CCN(C)CC2)cc(-c2ccc(Cl)cc2)n1-c1ccc(Cl)cc1", "target or system": "Mycobacterium tuberculosis", "assay": "bacterial growth, inhibitor", "test system": "mmpL3-TetON", "endpoint": "IC50", "value": "2460 nM"}
{"SMILES": "O=C1NC2(CC2)COc2ncc(F)cc2[C@H]2COCCN2c2ccn3ncc1c3n2", "test system": "Sprague-Dawley rat, male, serum", "setting": "oral, 5 mg/kg/day, end of recovery, 4-week subacute toxicity", "endpoint": "serum hepatic lipase activity", "value": "3 ± 0.6 U/L"}
{"SMILES": "CC(C)(C)C(=O)OCOP(=O)(OCOC(=O)C(C)(C)C)C1CCCN(O)C1=O (stereo not drawn)", "target or system": "SF-268", "endpoint": "TGI", "value": "20200 nM"}
{"SMILES": "Cc1ccc(NS(=O)(=O)c2c(C(=O)N3CCCCCC3)c(C)n(C)c2C)c(Cl)c1", "target or system": "Human alphaherpesvirus 1", "assay": "viral infection", "test system": "HaCaT", "setting": "1.235 µM, 36 h", "how to read": "relative to: untreated", "endpoint": "infection", "value": "99.9% and 93.4% and 98.7%"}
{"SMILES": "CCOc1cc(/C=N/NC(=O)c2ccccn2)ccc1OC(=O)CN1C(=O)CSC1=O", "target or system": "Mycobacterium tuberculosis", "assay": "Alamar blue", "test system": "192", "endpoint": "MIC", "value": "0.565 µM"}
{"SMILES": "CC(C)[C@H]1NC(=O)C[C@H]2/C=C/CCSSC[C@@H](NC1=O)C(=O)N[C@H](Cc1cccc3ccccc13)C(=O)NCC(=O)O2", "target or system": "PAK1 (Homo sapiens, UniProt Q13153)", "assay": "enzyme activity, inhibitor", "setting": "10 µM", "endpoint": "inhibition", "value": "2.4%"}
{"SMILES": "CCc1ccc(C2CC(C(F)(F)F)n3ncc(C(=O)NCc4cccs4)c3N2)cc1 (stereo not drawn)", "target or system": "Mycobacterium tuberculosis", "assay": "microbial growth", "endpoint": "IC50", "value": "1100 nM"}
{"SMILES": "CC(C)CC(O)(CC(C)C)c1cn(C(=O)N2CCCC2)nn1", "target or system": "Platelet-activating factor acetylhydrolase IB subunit alpha2 (Mus musculus, UniProt Q61206)", "assay": "probe labelling, inhibitor, competitive ABPP-SILAC, refers to: Pafah1b2", "test system": "mouse T cells", "setting": "concentration not given, 4 h, protein level", "how to read": "relative to: treated over DMSO cells, lower = stronger inhibition", "endpoint": "median SILAC activity ratio", "value": 1.24}
{"note": "Some of these lines once more:"}
{"SMILES": "CC[C@H](C)[C@H](NC(=O)[C@H](CO)NC(=O)[C@H](Cc1ccc(O)cc1)NC(=O)[C@H](Cc1ccc(O)cc1)NC(=O)[C@H](CC(N)=O)NC(=O)CNC(=O)[C@H](CO)NC(=O)[C@H](Cc1ccc(O)cc1)NC(=O)[C@H](CO)NC(=O)[C@H](CO)NC(=O)[C@H](CC(N)=O)NC(=O)COCCOCCNC(=O)CN1CCN(CC(=O)O)CCN(CC(=O)O)CCN(CC(=O)O)CC1)C(=O)N[C@@H](CC(C)C)C(N)=O [copper-64 labelled]", "assay": "dynamic PET", "test system": "KPC mouse Ptf1a-CreER tdTomato, metastases", "setting": "intravenous, 4.6 MBq/mouse, 0.1 min, 84 d after tamoxifen", "endpoint": "tissue uptake", "value": "0.08 %ID/mL"}
{"SMILES": "CN(C)[C@H]1C[C@@]23CC[C@@]4(O2)C(=CC[C@]2(C)[C@@H](c5ccc6ccncc6c5)CC[C@H]24)C=C3[C@@H](O)[C@@H]1O", "target or system": "CAMK1 (Homo sapiens, UniProt Q14012)", "assay": "ATP probe labelling, inhibitor, KiNativ profiling", "setting": "1 µM", "endpoint": "inhibition", "value": "-4.2%"}
